Results collected from several papers.
Parts stem from different laboratories: compare values within a part only.

Block 1 — method: protein-binding microarray; molecule type: double-stranded DNA, one strand shown; sample: in vitro; concentration: 2540 nM top; notes: 60-bp whole probe; added: salmon DNA 0.4 mg/ml; relative to: random background probes; reading: higher = stronger binding; constant ends, left off below: GCCTAGCAC … GTCTTGATTCGCTTGACGCTGCTG
Target: Interferon regulatory factor 3, full length, phosphomimetic (IRF3, Homo sapiens, UniProt Q14653, residues 1-427, S386D/S396D/S398D/S402D/T404D/S405D)
Residues (chain): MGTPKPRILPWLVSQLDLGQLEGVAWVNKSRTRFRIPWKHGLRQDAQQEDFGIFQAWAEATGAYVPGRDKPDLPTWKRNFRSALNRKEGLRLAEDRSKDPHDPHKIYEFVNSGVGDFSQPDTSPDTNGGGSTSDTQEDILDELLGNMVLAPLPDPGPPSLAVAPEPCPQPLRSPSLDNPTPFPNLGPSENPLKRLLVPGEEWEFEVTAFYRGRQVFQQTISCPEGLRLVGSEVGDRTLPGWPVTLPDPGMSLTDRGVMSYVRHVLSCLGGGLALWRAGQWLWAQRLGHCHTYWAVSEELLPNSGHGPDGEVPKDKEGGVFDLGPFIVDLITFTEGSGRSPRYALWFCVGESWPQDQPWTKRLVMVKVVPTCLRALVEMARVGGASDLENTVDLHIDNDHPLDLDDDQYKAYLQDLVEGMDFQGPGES
Strand	fitted relative affinity
GACGATATCGTGACTGGAGACGTGCTA	-0.147 z-score
TTAGATATCAGTTTCGTTTAGTGCTAG	5.31 z-score
GACGAACTGGGGTATCGAGATGTGCTA	-0.224 z-score
TAATGCTTCTGTATTCATGAGTGCTAG	0.167 z-score
TCATGTGTAGGTCTTAAACTGTGCTAG	-0.396 z-score
GACGAACTGACTATCGAGACGTGCTAG	-0.00778 z-score
TTAGATATCGGGACTGGATTTGTGCTA	-0.07 z-score
TCAGAGTTCTGTTGCAAACTGTGCTAG	-0.141 z-score

Block 2 — read-out: enzyme activity; mode: inhibitor; concentration: 20 µM
Target: Replicase polyprotein 1ab, polymerase (rep, Severe acute respiratory syndrome coronavirus 2, UniProt P0DTD1)
SMILES	inhibition [%]
Nc1ccc(C(=O)Nc2cccc(-c3nc(N4CCOCC4)c4oc5ncccc5c4n3)c2)cn1	-6.9
C[n+]1cc2c3c(ccc2c2ccc4cc5c(cc4c21)OCO5)OCO3	11.8
COc1c(C)c2c(c(O)c1C/C=C(\C)CCC(=O)OCCN1CCOCC1)C(=O)OC2	0.18
C=CCNc1ncnc2ccc(Br)cc12	4.63
O=C1C(=Cc2cccnc2)C(=O)c2ccccc21	66.4
COc1ccc2[nH]c([S+]([O-])Cc3ncc(C)c(OC)c3C)nc2c1 (stereo not drawn)	-7.82
CCC[C@H](N[C@@H](C)C(=O)N1[C@H](C(=O)O)C[C@@H]2CCCC[C@@H]21)C(=O)O	-0.64
Fc1ccc(CNc2ncnc3ccc(F)cc23)cc1	3.53
O=C1NC(=O)[C@@]2(CCOc3ccc(F)cc32)N1	-2.04
COc1cc(N2CCN(C)CC2)ccc1Nc1nccc(-c2cn(C)c3cnccc23)n1	19.8
Nc1nc2ccc(Cl)cc2c2nc(-c3ccco3)nn12	-3.86
O=C(O)c1cccnc1	16.6
C[N+](C)(C)CCCCCNCC12CC3CC(CC(C3)C1)C2	1.45
CN/C(=N\CCSCc1nc[nH]c1C)NC#N	25.6
COc1ccc(CCN)cc1OC	-1.01
CCCCOc1cc(CC2CNC(=O)N2)ccc1OC (stereo not drawn)	-0.08
CN1C(C)(C)CCCC1(C)C	3.18
O=C1c2cccc(O)c2C(=O)c2c(O)cc(CO)cc21	4.25
CCc1noc(C)c1-c1[nH]c2ccccc2c1C(O)CN(C)C (stereo not drawn)	-0.31
CNC(=O)[C@H](Cc1ccccc1)NC(=O)[C@H](CC(C)C)[C@H](CSc1cccs1)C(=O)NO	-1.13
CC(C)c1ccc(C(=O)N=C(N)N)cc1S(C)(=O)=O	-0.79
CC[C@]1(O)C[C@H]2CN(CCc3c([nH]c4ccccc34)[C@@](C(=O)OC)(c3cc4c(cc3OC)N(C=O)[C@H]3[C@@](O)(C(=O)OC)[C@H](OC(C)=O)[C@]5(CC)C=CCN6CC[C@]43[C@@H]65)C2)C1	2.04
C[C@@H]1CCC[C@H](C)N1NC(=O)c1ccc(Cl)c(S(N)(=O)=O)c1	-7.46
N[C@@H](CS(=O)O)C(=O)O	2.57
COc1ccc(C(=O)N2CCN(c3ccc4c(c3)CCC(=O)N4)CC2)cc1OC	1.4

Block 3 — read-out: enzyme activity; mode: inhibitor; concentration: 20 µM; notes: primary screen
Target: Replicase polyprotein 1ab, main protease (rep, Severe acute respiratory syndrome coronavirus 2, UniProt P0DTD1)
Structure (SMILES)	inhibition
O=C(O)C=C1NN(Cc2nc3cc(C(F)(F)F)ccc3s2)C(=O)c2ccccc21	31.1%
NC[C@H](O)c1ccc(O)c(O)c1	54%
O=C(C=Cc1ccc(O)c2c1C(C(=O)OC(Cc1ccc(O)c(O)c1)C(=O)O)C(c1ccc(O)c(O)c1)O2)OC(Cc1ccc(O)c(O)c1)C(=O)O (stereo not drawn)	90.8%

Block 4 — cell line: HEK-293T; read-out: pseudovirus infection; method: FDA-approved drug library screen; organism: VSV pseudotyped with SARS-CoV-2 spike; concentration: 10 µM; time: 16 h; relative to: vehicle-treated
SMILES	GFP-positive cells [%]
CCCNC(=O)NS(=O)(=O)c1ccc(Cl)cc1	110
O=C1CC2(CCCC2)CC(=O)N1CCCCN1CCN(c2ncccn2)CC1	90.2
COC(=O)c1ccccc1O	100

Block 5 — method: RNA Bind-n-Seq; molecule type: RNA; sample: in vitro; concentration: 365 nM; relative to: no-protein control; reading: higher = stronger binding
Target: RNA binding protein fox-1 homolog 2, RRM domain, GST-SBP tag (RBFOX2, Homo sapiens, UniProt O43251-10, residues 100-194)
Notes: natural RNA segment, single round, ends assumed
Constant ends, left off below: GGGAGUUCUACAGUCCGACGAUC … UGGAAUUCUCGGGUGCCAA
Target sequence (chain): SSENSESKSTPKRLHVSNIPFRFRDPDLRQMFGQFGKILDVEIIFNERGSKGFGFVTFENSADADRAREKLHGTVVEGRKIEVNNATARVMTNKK
Strand	RBNS enrichment (R)
CUAAUAUUCACAUGUUCUAAUACUUUGUUUAUUGUAAAACAGCUAAAUUUGGAGAUACGUAAAGCCUUGUUUUCUCUGUGUGGUUCAGCUACUUUCCAUUUGGUAUUACA	0.825
UUGCUUUAAACUCUGUUCAAUCCCCAGGCUUUCUGAGUCCGCUCUACCUUUUCUGGGUGAUCUUGUGGCACAUGUAGCAAUGUUUCUUUCAUUCCUGUCCCUUCCUGGCU	0.331
UGCUGGGCCAACUGGUCACCCUCACACAGCACAGAGGGGGCUAGAGGGAACAGCCUCCUGGGUCUUCCUUCUGGUCAUCUCCUUGGGGCAGCACAGGACCACUUCAUGGC	0.306
CCCAAUUUGUGAAGAGACUCCUAACACUGCACUAACCCAUUUGUGUACAUACAUGGGCUCAGCCCUGGGCCAAAUGUGCCUGAUGGGAACAGACUUGCAGGGCCAUGCAG	0.447
UGUGUGUGCCACAUUUUUAAAUUUUGUCAAGGUUUACCCACACACACACCAAUCAAAACCUUAUUGGUCUGGAAGUUGGGAUUCCGUUUUUGGUAGAUCGUGGUAGAUCU	0.347
GGGAGAUGGAUUAAUGUGAGUAACAGGAAUGUGUCUUUAAAAAGCUAGAGUGGUUACAUUUAAUCAGGCAGUAAGAUAAUUUGGGUUCUUGAGUUGUUUUGGAGUAAUAU	1.77
CUAGCCUUCGGGCACCUCCAGGGCCAGAGAGCAGGCUCAGAGCAGCUAGUGUGGAGCUCAGCAUCCCCACCCCACCCCUCCUCCCUGUAGAGCUGAUUUGAGGCCUCCUU	1.41
CCAACCUCUGCCCCAGUAGUUGCCUCCAGGGCGGAAGCAGGGAUGCGAAAGAUGGCUACCUGGGGGGCUGCGGGGCUUGGGGGAGUUUACAAUCCCAUCCUAUGGCCUGC	0.448

Block 6 — method: RNA Bind-n-Seq; molecule type: RNA; sample: in vitro; concentration: 20 nM; notes: 6-mer, flanks averaged, single round; added: 150 mM KCl; relative to: input library; reading: higher = stronger binding
Target: TAR DNA-binding protein 43, full length, His tag (TARDBP, Homo sapiens, UniProt Q13148, residues 1-414)
Strand	6-mer enrichment (R)
UUUGGG	1.64
GUUUCU	0.619
GCGUGG	3.54
GUUGGC	1.21
AGUCCU	0.595
GAGGAU	1.45
AUUUCG	0.585
